Results from different studies.
± marks the error that the study gave.

Nc1nc(-c2ccccc2)nc2[nH]nc(Nc3cccc(C(F)(F)F)c3)c12 — IC50 (rhinovirus B42; viral cytopathic effect; HeLa): 1430 nM
COc1cc(O)c(-c2cc(-c3cc(-c4c(O)cc5c(c4OC)[C@H](C)N[C@H](C)C5)c4cc(C)cc(OC)c4c3O)c(O)c3c(OC)cc(C)cc23)c2c1[C@H](C)N[C@H](C)C2 — IC50 (Plasmodium falciparum; asexual parasite proliferation, SYBR Green I fluorescence; 7G8): 96 ± 14 nM
Cc1ccc(Nc2n[nH]c3nc(-c4cccc(F)c4)nc(N)c23)cc1 — IC50 (coxsackievirus B3; viral cytopathic effect; HeLa): 18700 nM
CC1=N[C@H](C)Cc2c(-c3ccc(C)cc3)ccc(O)c21 — IC50 (Plasmodium falciparum; asexual parasite proliferation, SYBR Green I fluorescence; 7G8): 210 ± 48 nM
CSCC[C@@H](N)C(=O)N[C@@H](CC(C)C)C(=O)N[C@@H](CCCNC(=N)N)C(=O)N[C@@H](Cc1c[nH]c2ccccc12)C(=O)N[C@@H](CO)C(=O)N[C@@H](CCCNC(=N)N)C(=O)N[C@@H](CCCCN)C(=O)N[C@@H](CCSC)C(=O)N1CCC[C@H]1C(=O)N[C@@H](CS)C(=O)N[C@H](C(=O)N[C@@H](CO)C(=O)O)C(C)C — IC50 (Human immunodeficiency virus 1; viral replication, inhibitor; TZM-bl): 489 nM
CCOC(=O)/C=C/[C@H](C[C@@H]1CCNC1=O)NC(=O)[C@@H](CC(=O)[C@@H](NC(=O)c1cc(C)on1)C(C)C)Cc1ccc(F)cc1 — IC50 (rhinovirus C11a-mGL; viral replication, high-content imaging): 13 nM
COc1cncc(-c2cc(F)cc(CNC(=O)c3cc(N4CC[C@@](C#N)(C5CC5)C4=O)cc(C)n3)c2)c1 — IC50 (Plasmodium falciparum; parasite growth; conditional knockdown control line; 120 h, with: 12.5 nM anhydrotetracycline): 250 nM
CNCc1ccc2c(c1)C[C@H](CNC(=N)N)[C@H]2NC(=O)C(=O)Nc1ccc(Cl)c(F)c1 — IC50 (Human immunodeficiency virus 1; viral infection, Env pseudovirus; TZM-bl, C2101.c01 CRF01_AE): > 100000 nM
Cc1cc(N2CC[C@@](C#N)(C3CC3)C2=O)cc(NC(=O)Cc2ccccc2)n1 — IC50 (Plasmodium falciparum; parasite growth; cPRS conditional knockdown line; 72 h, with: 3 nM anhydrotetracycline): 3 nM
COc1cccc2c(-c3ccc(O)c4c3CC(C)(C)N=C4)ccc(OC(C)C)c12 — IC50 (Plasmodium falciparum; asexual parasite proliferation, SYBR Green I fluorescence; Dd2): 208 ± 31 nM
CN(C)c1nc(-c2ccccc2)nc2[nH]nc(Nc3ccc(F)cc3)c12 — IC50 (rhinovirus B42; viral cytopathic effect; HeLa): 8120 nM
COC1C=COC2(C)Oc3c(C)c(O)c4c(c3C2=O)C2=NC3(CCN(CC(C)C)CC3)NC2=C(NC(=O)C(C)=CC=CC(C)C(O)C(C)C(O)C(C)C(OC(=O)Nc2cnccn2)C1C)C4=O (centres unmarked) — IC50 (Mycobacteroides abscessus; intracellular growth, Hill fit; THP-1 derived macrophages, ATCC 19977): 25 nM
Cc1cc(N2CCC(CO)(C3CC3)C2=O)cc(C(=O)NCc2cc(F)cc(-c3cnn(C)c3)c2)n1 (centres unmarked) — IC50 (Plasmodium falciparum; parasite growth; cPRS conditional knockdown line; 72 h, with: 50 nM anhydrotetracycline): 50 nM
COc1cc2c(c(OC)c1)C(C)=[N+](c1ccc(OC)c3c(OC)cc(C)cc13)[C@@H](C)C2 — IC50 (Plasmodium falciparum; asexual parasite proliferation, SYBR Green I fluorescence; HB3): 416 ± 62 nM
Nc1nc(-c2ccc(Cl)cc2)nc2[nH]nc(Nc3cccc(F)c3)c12 — IC50 (coxsackievirus B3; viral cytopathic effect; HeLa): 7750 nM
COc1cccc2c(-c3ccc(O)c4c3CCNC4)ccc(O)c12 — IC50 (Plasmodium falciparum; asexual parasite growth, SYBR Green I; clinical isolate SB_04, Malawi): 463.9 ± 0.85 nM
CCc1ccc(-c2nc(N)c3c(Nc4ccc(F)cc4)n[nH]c3n2)cc1 — IC50 (coxsackievirus B3; viral cytopathic effect; HeLa): 7180 nM
COCCN(C)CC(=O)NC(Cc1ccc(-c2ccccc2)cc1)B(O)O (centres unmarked) — IC50 (Plasmodium berghei; hepatic merozoite formation; HepG2, liver stage; 72 h): 150 nM
COc1cccc2c(-c3ccc4c(c3O)[C@@H](C)N[C@H](C)C4)c(CO)cc(OC)c12 — IC50 (Plasmodium falciparum; asexual parasite proliferation, SYBR Green I fluorescence; clinical isolate SB_05, Mozambique): 4.6 ± 0.53 nM
Nc1nc(-c2ccccc2)nc2[nH]nc(Nc3ccc([N+](=O)[O-])cc3)c12 — IC50 (rhinovirus B42; viral cytopathic effect; HeLa): 40 nM
CCCOC(=O)N1c2cc(CNC)ccc2[C@H](NC(=O)C(=O)Nc2ccc(Cl)c(F)c2)[C@H]1CNC(=N)N — IC50 (Human immunodeficiency virus 1; viral infection, Env pseudovirus; TZM-bl, 620345.c01 CRF01_AE): > 100000 nM
COc1cccc2c(-c3ccc(O)c4c3CCN=C4)ccc(OC(C)C)c12 — IC50 (Plasmodium falciparum; asexual parasite proliferation, SYBR Green I fluorescence; K1): 163 ± 33 nM
Cc1ccc(-c2nc(N)c3c(Nc4ccc(Cl)cc4)n[nH]c3n2)cc1 — IC50 (rhinovirus B42; viral cytopathic effect; HeLa): 40 nM

A few entries again:
COc1cccc2c(-c3ccc(O)c4c3CC(C)(C)N=C4)ccc(OC(C)C)c12 — IC50 (Plasmodium falciparum; asexual parasite proliferation, SYBR Green I fluorescence; Dd2): 208 ± 31 nM
COC1C=COC2(C)Oc3c(C)c(O)c4c(c3C2=O)C2=NC3(CCN(CC(C)C)CC3)NC2=C(NC(=O)C(C)=CC=CC(C)C(O)C(C)C(O)C(C)C(OC(=O)Nc2cnccn2)C1C)C4=O (centres unmarked) — IC50 (Mycobacteroides abscessus; intracellular growth, Hill fit; THP-1 derived macrophages, ATCC 19977): 25 nM
CSCC[C@@H](N)C(=O)N[C@@H](CC(C)C)C(=O)N[C@@H](CCCNC(=N)N)C(=O)N[C@@H](Cc1c[nH]c2ccccc12)C(=O)N[C@@H](CO)C(=O)N[C@@H](CCCNC(=N)N)C(=O)N[C@@H](CCCCN)C(=O)N[C@@H](CCSC)C(=O)N1CCC[C@H]1C(=O)N[C@@H](CS)C(=O)N[C@H](C(=O)N[C@@H](CO)C(=O)O)C(C)C — IC50 (Human immunodeficiency virus 1; viral replication, inhibitor; TZM-bl): 489 nM
